Published values from different studies.
Compare with care: the assays were run in different laboratories.

CCCCCCCCCC(=O)O  time to baseline serum level (healthy male humans, serum; oral, dose not given, insulin tablet, together with: sodium caprate 550 mg): ~2 h
COc1cccc(-c2ccc(NC(=O)C3=C(C(=O)O)CCC3)c(F)c2)c1  time to 97% of steady state (male humans, plasma; oral, once daily, 5 half-lives): ≥ 9000 min
Cc1ccccc1-c1cc(N2CCN(C)CC2)ncc1N(C)C(=O)C(C)(C)c1cc(C(F)(F)F)cc(C(F)(F)F)c1  time to first quantifiable plasma level (human, plasma; oral, dose not given): ≤ 1 h
C[C@@H]1CCC[C@H](n2cnc(-c3cc(Cl)ccc3-n3cc(Cl)nn3)cc2=O)c2cc(ccn2)-c2c(cnn2C(F)F)NC1=O  time to steady state (healthy human, plasma; 20 to 500 mg once daily): 3 dosing days
O=C(CCCCCCNC(=O)c1cnc(N(c2ccccc2)c2ccccc2)nc1)NO  time above LLOQ (human patients, plasma; oral, 160 mg, LLOQ 0.50 ng/mL): 24 h
CC[C@H](C)[C@H](NC(=O)[C@H](CCC(N)=O)NC(=O)[C@H](Cc1c[nH]cn1)NC(=O)[C@H](C)NC(=O)[C@H](CC(C)C)NC(=O)[C@H](CCCCN)NC(=O)[C@H](CCC(N)=O)NC(=O)[C@@H](NC(=O)[C@@H](NC(=O)[C@@H]1CSSC[C@H](NC(=O)CNC(=O)[C@H](Cc2ccccc2)NC(=O)[C@H](CO)NC(=O)[C@H](CCCNC(=N)N)NC(=O)[C@H](CC(C)C)NC(=O)CNC(=O)[C@H](CCC(N)=O)NC(=O)[C@H](Cc2ccccc2)NC(=O)[C@H](CC(N)=O)NC(=O)[C@H](CC(N)=O)NC(=O)[C@H](CCSC)NC(=O)[C@H](CO)NC(=O)[C@H](CCC(N)=O)NC(=O)[C@H](CCCNC(=N)N)NC(=O)[C@@H](N)Cc2ccc(O)cc2)C(=O)N[C@@H](CCCNC(=N)N)C(=O)N[C@@H](Cc2ccccc2)C(=O)NCC(=O)N[C@@H]([C@@H](C)O)C(=O)N1)[C@@H](C)O)C(C)C)C(=O)N[C@@H](Cc1ccc(O)cc1)C(=O)N[C@@H](CCC(N)=O)C(=O)N[C@@H](Cc1ccccc1)C(=O)N[C@H](C(=O)N[C@@H](CC(=O)O)C(=O)N[C@@H](CCCCN)C(=O)N[C@@H](CC(=O)O)C(=O)N[C@@H](CCCCN)C(=O)N[C@@H](CC(=O)O)C(=O)N[C@@H](CC(N)=O)C(=O)N[C@H](C(=O)N[C@@H](C)C(=O)N1CCC[C@H]1C(=O)N[C@@H](CCCNC(=N)N)C(=O)N[C@@H](CO)C(=O)N[C@@H](CCCCN)C(=O)N[C@H](C(=O)N[C@@H](CO)C(=O)N1CCC[C@H]1C(=O)N[C@@H](CCC(N)=O)C(=O)NCC(=O)N[C@@H](Cc1ccc(O)cc1)C(N)=O)[C@@H](C)CC)C(C)C)[C@@H](C)O  time to return to baseline (human, Crohn's disease, plasma; intravenous infusion, 10 or 15 ng/kg/min, 8 h infusion): ≤ 2 h
CC(C)(C)c1cc(C(C)(C)C)c(NC(=O)c2c[nH]c3ccccc3c2=O)cc1O  time to steady state (human cystic fibrosis patients; oral, twice-daily dosing, together with: tezacaftor once daily): 3 to 5 days
CC(=O)O[C@H]1C(=O)[C@@]2(C)[C@H]([C@H](OC(=O)c3ccccc3)[C@]3(O)C[C@H](OC(=O)[C@H](O)[C@@H](NC(=O)c4ccccc4)c4ccccc4)C(C)=C1C3(C)C)[C@]1(OC(C)=O)CO[C@@H]1C[C@@H]2O  time above plasma concentration (human patients, plasma; intravenous, 100 mg/m2, 3 h infusion, cycle 1, concentration above 0.05 µM, no protease inhibitors): 6.7 h
C[C@H]1CNCCCN1S(=O)(=O)c1cccc2cncc(F)c12  time to peak hyperaemia (conjunctival hyperaemia; human male; topical ocular, 1 drop per eye twice daily): 15 min
CC[C@H](C)[C@@H]1NC(=O)[C@H](Cc2ccc(O)cc2)NC(=O)[C@@H](N)CSSC[C@@H](C(=O)N2CCC[C@H]2C(=O)N[C@@H](CC(C)C)C(=O)NCC(N)=O)NC(=O)[C@H](CC(N)=O)NC(=O)[C@H](CCC(N)=O)NC1=O  time to significant level (radioimmunoassay; human, lumbar CSF; intranasal, 24 IU): ≤ 75 min
O=C(NCCN1CCCC1)c1cc(-c2ccc(CN3CCOCC3)cc2)nc2ccc(F)cc12  time above parasiticidal level (human, whole blood; oral, 400 mg or higher, threshold 10 ng/mL): ≥ 7 days
O=C(c1ccc(F)c(F)c1Nc1ccc(I)cc1F)N1CC(O)([C@@H]2CCCCN2)C1  time to steady state (human; oral, daily dosing): ~10 days

A few entries again:
CCCCCCCCCC(=O)O  time to baseline serum level (healthy male humans, serum; oral, dose not given, insulin tablet, together with: sodium caprate 550 mg): ~2 h
CC[C@H](C)[C@@H]1NC(=O)[C@H](Cc2ccc(O)cc2)NC(=O)[C@@H](N)CSSC[C@@H](C(=O)N2CCC[C@H]2C(=O)N[C@@H](CC(C)C)C(=O)NCC(N)=O)NC(=O)[C@H](CC(N)=O)NC(=O)[C@H](CCC(N)=O)NC1=O  time to significant level (radioimmunoassay; human, lumbar CSF; intranasal, 24 IU): ≤ 75 min
